Experimental data of several laboratories.
Compare with care: the assays were run in different laboratories. Values joined by “and” are separate records of one study, mostly repeats; a detail may differ.
PRKCB isoform beta-I: Protein kinase C beta type, isoform beta-I (PRKCB, Homo sapiens, UniProt P05771)
PRKCB isoform beta-II: Protein kinase C beta type, isoform beta-II (PRKCB, Homo sapiens, UniProt P05771)

SMILES	target	assay	setting	how to read	quantity	value
CN1CCN(Cc2ccc(-c3ccc(CO[C@H]4CCC[C@@H]4NC(=O)c4cc(-c5cnn(C)c5)cnc4N)cc3)cc2)CC1	PRKCB (Homo sapiens, UniProt P05771)	enzyme activity, inhibitor	0.1 µM		inhibition	2%
C=CC(=O)Nc1cccc(-c2cnc3[nH]cc(C(=O)NC(C)(C)C)c3n2)c1	PRKCB isoform beta-I	kinase activity, inhibitor, kinase panel	0.1 µM		inhibition	-3% and 1%
Cc1cccc(O[C@H]2CCC[C@@H](C(C)CNCc3ccncc3)C2)c1 (relative stereo)	PRKCB isoform beta-II	kinome profiling	10 µM		inhibition	-8%
COc1c(OCCCN2CCOCC2)ccc2c1N=C(NC(=O)c1cnc(N)nc1)N1CCN=C21	PRKCB isoform beta-I	kinase activity, inhibitor	1 µM	relative to: untreated control	remaining activity	97%
Nc1ncc(-c2cc(-c3cnn(CC(F)(F)F)c3)ncc2F)nc1C(=O)NC1CNCC(F)C1 (stereo not drawn)	PRKCB isoform beta-II	enzyme activity	1 µM	relative to: DMSO control	remaining activity	79.4%
COc1ccc(NC(=O)Nc2ccc3c(c2)C(=O)N(C(C)CO)CC(C)C(CN(C)Cc2ccc4c(c2)OCO4)O3)cc1 (stereo not drawn)	PRKCB isoform beta-II	kinase activity, KinaseProfiler	0.03 µM, species human	relative to: control	remaining activity	95%
NC(=O)[C@@H](O)C[C@H]1CCc2sc3ncnc(O[C@H]4CC[C@H](N5CCOCC5)CC4)c3c21	PRKCB isoform beta-II	radioisotope kinase	10 µM		inhibition	9%
CN1CC[C@@H](COc2cnc(C#N)cc2-c2ccn3nc(NC(=O)C4CC4)cc3c2)C1	Protein kinase C beta type, beta-II isoform (PRKCB, Homo sapiens, UniProt P05771)	kinase activity	1 µM		inhibition	2%
NC(=O)C[C@H]1CCc2sc3ncnc(O[C@H]4CC[C@H](N5CCOCC5)CC4)c3c21	PRKCB isoform beta-I	radioisotope kinase	10 µM		inhibition	6%
C=CC(=O)N1Cc2nc(-c3cc(-c4cc(Cl)cnc4Cl)c(F)cc3F)n(-c3ccncn3)c2C1	PRKCB isoform beta-II	kinome panel	1 µM		inhibition	12.2%
O=C(Cc1ccc(OCc2ccccc2)cc1)NC1(C(=O)O)CCN(C(=O)c2ccc(-c3cccc(Cl)c3)cc2)CC1	PRKCB isoform beta-II	kinase activity, inhibitor	10 µM, together with: ATP at Km		remaining activity	103%
CCn1cc(C(=O)O)c(=O)c2c(N)c(F)c(NC3CCCCC3)cc21	PRKCB isoform beta-II	kinase activity	0.1 µM, together with: ATP at Km		inhibition	3.9%
COCC12C(=O)NC3C4(C(OC)CC1O)C1CC5(O)C(OC)C(O)C(OC(C)=O)(C1C5OC(=O)c1ccccc1)C3(O)C(OC)C24 (stereo not drawn)	PRKCB isoform beta-I	kinase activity, inhibitor, ProQinase kinase profiling	25 µM	relative to: control	remaining activity	104% and 111%
O=C=[N][Ru-4]123([n]4c5ccc(O)cc5c5c6c(c7cc(F)c[n+]1c7c54)C(=O)NC6=O)[S+]1CC[S+]2CC[S+]3CC1 (stereo not drawn)	PRKCB isoform beta-I	enzyme activity	100 nM, human enzyme, together with: 10 µM ATP	relative to: untreated	remaining activity	99%
CNC(=O)C[C@H](Cc1ccc(C#N)cc1)NC(=O)c1cc(-c2ccc(CN[C@H](C)c3ccc(C)cc3)o2)ccc1Cl	PRKCB isoform beta-I	enzyme activity, KinaseProfiler panel	1 µM		remaining activity	98%
